Results from different studies.
Lines come from different studies, so protocols differ. ± marks the error that the study gave.
Histidine kinase AgrC: Histidine kinase AgrC (Listeria monocytogenes, UniProt A8E0G3)
lasR: Transcriptional activator protein LasR (lasR, Pseudomonas aeruginosa, UniProt P25084)
Sequence of UniProt P25084 (whole entry, looked up): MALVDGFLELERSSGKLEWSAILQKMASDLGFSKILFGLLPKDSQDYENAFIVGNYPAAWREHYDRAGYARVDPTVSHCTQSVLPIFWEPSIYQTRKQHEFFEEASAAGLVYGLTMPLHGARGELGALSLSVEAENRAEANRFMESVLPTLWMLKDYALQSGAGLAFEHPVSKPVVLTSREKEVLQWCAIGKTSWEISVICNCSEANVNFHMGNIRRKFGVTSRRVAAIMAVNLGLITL
sdiA: Regulatory protein SdiA (sdiA, Escherichia coli, UniProt P07026)
Sequence of UniProt P07026 (whole entry, looked up): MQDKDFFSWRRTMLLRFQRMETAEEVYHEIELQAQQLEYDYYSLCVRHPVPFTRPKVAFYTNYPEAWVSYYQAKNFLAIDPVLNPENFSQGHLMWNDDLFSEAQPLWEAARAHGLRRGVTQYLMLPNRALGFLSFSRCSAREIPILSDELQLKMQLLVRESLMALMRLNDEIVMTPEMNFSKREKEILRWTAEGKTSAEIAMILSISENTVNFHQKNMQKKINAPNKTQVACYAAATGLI
BRSK1: Serine/threonine-protein kinase BRSK1 (BRSK1, Homo sapiens, UniProt Q8TDC3)
Sequence of UniProt Q8TDC3 (whole entry, looked up): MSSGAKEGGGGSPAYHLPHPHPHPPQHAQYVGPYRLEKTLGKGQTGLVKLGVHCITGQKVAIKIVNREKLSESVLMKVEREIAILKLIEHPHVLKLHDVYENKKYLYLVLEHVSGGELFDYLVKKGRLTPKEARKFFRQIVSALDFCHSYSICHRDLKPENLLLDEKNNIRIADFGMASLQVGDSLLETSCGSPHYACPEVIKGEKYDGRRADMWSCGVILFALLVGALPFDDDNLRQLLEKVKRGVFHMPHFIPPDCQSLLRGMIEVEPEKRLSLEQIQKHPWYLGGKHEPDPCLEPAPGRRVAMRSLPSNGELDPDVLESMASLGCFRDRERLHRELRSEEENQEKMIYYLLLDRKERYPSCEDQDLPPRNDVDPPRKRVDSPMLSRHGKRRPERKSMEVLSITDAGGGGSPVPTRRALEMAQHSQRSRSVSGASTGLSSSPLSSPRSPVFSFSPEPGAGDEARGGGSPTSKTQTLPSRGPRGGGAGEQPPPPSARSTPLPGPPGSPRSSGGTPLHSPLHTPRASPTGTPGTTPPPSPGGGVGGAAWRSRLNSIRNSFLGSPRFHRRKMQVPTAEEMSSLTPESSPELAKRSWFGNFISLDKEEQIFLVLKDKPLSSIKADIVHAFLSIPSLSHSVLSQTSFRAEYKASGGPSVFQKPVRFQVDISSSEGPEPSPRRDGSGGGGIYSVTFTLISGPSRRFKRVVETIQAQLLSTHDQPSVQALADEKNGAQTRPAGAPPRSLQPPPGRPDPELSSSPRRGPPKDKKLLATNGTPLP
Sequence of UniProt P28566 (whole entry, looked up): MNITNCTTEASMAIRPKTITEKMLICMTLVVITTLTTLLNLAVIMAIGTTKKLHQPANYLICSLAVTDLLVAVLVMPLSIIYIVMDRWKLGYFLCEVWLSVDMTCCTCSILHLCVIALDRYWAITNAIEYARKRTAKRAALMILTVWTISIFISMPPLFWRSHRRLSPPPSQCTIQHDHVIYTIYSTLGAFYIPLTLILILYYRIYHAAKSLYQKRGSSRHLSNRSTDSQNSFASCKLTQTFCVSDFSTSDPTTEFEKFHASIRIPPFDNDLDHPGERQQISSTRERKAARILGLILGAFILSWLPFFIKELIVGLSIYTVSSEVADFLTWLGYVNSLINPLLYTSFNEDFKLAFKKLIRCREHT
Sequence of UniProt Q86UE8 (whole entry, looked up): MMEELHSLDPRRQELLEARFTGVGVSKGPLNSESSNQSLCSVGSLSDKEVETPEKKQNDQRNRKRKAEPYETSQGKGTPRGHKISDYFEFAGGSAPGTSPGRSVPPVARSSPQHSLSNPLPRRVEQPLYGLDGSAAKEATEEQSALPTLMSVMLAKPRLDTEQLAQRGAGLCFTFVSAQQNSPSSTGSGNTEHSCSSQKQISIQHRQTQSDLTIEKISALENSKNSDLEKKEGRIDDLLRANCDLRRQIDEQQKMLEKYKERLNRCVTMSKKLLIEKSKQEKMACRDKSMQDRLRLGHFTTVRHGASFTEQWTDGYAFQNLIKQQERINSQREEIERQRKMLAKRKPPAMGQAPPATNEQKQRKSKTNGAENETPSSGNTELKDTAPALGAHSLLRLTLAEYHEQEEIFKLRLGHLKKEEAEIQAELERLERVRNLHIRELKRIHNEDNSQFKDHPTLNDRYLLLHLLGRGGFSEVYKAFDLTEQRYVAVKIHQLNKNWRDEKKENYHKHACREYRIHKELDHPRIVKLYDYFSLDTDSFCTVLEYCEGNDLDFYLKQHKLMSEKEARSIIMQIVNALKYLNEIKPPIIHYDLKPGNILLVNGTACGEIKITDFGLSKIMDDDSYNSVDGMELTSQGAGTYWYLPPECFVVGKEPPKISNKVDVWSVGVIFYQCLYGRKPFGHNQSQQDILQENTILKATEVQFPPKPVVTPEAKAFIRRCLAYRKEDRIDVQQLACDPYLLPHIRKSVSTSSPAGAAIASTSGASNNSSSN
Sequence of UniProt Q9UKP6 (whole entry, unmodified, looked up): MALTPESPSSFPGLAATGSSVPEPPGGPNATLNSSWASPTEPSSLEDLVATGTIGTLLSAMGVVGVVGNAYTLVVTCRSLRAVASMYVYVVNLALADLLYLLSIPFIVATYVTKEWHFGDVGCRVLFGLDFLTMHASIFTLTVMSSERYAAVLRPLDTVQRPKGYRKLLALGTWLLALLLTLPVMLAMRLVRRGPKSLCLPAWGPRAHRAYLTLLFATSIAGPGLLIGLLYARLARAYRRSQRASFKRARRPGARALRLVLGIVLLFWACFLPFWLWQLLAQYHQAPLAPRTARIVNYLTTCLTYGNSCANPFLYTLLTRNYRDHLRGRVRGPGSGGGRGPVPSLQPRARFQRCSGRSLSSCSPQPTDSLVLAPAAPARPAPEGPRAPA
Sequence of UniProt P35372 (whole entry, looked up): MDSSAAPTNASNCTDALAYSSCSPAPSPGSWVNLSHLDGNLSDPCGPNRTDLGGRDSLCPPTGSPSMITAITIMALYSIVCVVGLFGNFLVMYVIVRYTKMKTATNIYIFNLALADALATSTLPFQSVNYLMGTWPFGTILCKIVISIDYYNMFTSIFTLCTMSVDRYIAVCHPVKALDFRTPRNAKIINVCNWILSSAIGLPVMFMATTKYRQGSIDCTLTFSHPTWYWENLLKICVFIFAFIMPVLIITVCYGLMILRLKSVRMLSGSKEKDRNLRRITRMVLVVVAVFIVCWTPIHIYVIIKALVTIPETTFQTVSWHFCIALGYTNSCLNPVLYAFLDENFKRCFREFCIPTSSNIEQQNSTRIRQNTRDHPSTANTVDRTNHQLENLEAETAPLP
Sequence of UniProt P21554 (whole entry, looked up): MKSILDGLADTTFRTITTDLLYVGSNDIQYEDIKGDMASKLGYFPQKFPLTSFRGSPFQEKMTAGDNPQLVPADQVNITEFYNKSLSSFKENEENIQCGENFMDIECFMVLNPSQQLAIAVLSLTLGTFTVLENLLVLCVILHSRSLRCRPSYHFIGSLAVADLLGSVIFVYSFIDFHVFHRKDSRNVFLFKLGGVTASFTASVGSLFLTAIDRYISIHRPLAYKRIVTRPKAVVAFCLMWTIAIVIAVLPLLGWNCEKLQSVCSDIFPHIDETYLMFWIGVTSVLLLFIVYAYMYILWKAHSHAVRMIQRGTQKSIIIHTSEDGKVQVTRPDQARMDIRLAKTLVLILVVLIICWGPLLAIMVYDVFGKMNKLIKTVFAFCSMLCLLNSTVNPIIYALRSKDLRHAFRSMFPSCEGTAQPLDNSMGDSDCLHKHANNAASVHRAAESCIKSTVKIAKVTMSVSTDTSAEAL
Sequence of UniProt P54764 (whole entry, looked up): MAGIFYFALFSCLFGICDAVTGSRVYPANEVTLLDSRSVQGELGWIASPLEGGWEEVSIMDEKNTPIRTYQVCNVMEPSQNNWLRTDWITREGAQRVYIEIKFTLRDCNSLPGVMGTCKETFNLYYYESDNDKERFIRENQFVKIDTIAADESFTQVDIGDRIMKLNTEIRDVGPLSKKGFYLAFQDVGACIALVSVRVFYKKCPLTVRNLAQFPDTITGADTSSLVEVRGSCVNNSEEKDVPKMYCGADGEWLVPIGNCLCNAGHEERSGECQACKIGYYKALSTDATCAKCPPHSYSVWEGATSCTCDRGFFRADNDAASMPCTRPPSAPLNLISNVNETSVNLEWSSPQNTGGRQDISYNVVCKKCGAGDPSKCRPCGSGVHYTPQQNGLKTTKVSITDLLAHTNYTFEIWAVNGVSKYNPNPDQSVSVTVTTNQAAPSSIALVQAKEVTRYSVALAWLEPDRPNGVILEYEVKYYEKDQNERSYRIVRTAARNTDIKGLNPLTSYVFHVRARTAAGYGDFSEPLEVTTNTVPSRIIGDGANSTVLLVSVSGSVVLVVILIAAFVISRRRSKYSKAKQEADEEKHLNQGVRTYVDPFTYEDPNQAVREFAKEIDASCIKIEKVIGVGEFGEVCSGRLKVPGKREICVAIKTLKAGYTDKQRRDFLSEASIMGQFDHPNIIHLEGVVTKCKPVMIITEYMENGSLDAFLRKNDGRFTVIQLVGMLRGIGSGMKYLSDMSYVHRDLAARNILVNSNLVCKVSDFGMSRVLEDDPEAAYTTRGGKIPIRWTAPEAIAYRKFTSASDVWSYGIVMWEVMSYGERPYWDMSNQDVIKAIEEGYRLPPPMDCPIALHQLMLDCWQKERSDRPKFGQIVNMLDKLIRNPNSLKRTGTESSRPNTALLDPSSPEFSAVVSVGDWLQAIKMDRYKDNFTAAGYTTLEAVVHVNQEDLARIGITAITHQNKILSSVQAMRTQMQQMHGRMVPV
Sequence of UniProt Q01718 (whole entry, looked up): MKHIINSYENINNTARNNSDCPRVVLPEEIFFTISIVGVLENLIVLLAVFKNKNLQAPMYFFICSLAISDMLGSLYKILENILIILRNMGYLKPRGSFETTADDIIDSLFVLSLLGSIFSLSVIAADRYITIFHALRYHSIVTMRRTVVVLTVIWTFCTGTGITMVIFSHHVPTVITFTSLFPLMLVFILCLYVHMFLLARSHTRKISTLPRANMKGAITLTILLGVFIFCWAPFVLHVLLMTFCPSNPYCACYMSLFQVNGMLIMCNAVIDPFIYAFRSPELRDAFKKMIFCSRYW

SMILES	target or system	assay	test system	conditions	how to read	endpoint	result
CCCC[C@H](NC(=O)[C@H](CC(C)C)NC(=O)[C@H](CCC(N)=O)NC(=O)[C@@H](NC(=O)[C@H](CCC(=O)O)NC(=O)C(C)(C)NC(=O)[C@@H](NC(=O)C1(N)CCCC1)C(C)C)[C@@H](C)CC)C(=O)N[C@@H](Cc1c[nH]cn1)C(=O)N[C@@H](CCC(N)=O)C(=O)N[C@@H](CCCCNC(=N)N)C(=O)N[C@@H](C)C(=O)N[C@@H](CCCCNC(=O)[C@H](CCCNC(=N)N)NC(=O)CCCCCCCCCCCCCCCCC(=O)O)C(N)=O	Parathyroid hormone/parathyroid hormone-related peptide receptor (PTH1R, Homo sapiens, UniProt Q03431)	cAMP, agonist, GloSensor	GP-2.3	120 min after washout		EC50	19.5 nM
CSCC[C@@H]1NC(=O)[C@H](Cc2ccccc2)NC(=O)[C@@H](NC(=O)[C@H](C)N)CSC(=O)[C@H](C)NC(=O)[C@H](Cc2ccccc2)NC1=O	Histidine kinase AgrC					EC50	241 nM
CCCCCCCCCC(=O)CC(=O)NC1CCCCC1=O (stereo not shown)	lasR	reporter gene, agonist	ΔmexAB-oprM pump mutant			EC50	> 200000 nM
CSCC[C@H]1NC(=O)[C@H](Cc2ccccc2)NC(=O)[C@H](NC(=O)[C@H](C)N)CSC(=O)[C@H](C(C)C)NC(=O)[C@H](Cc2ccccc2)NC1=O	Histidine kinase AgrC					EC50	24.1 nM
CCCCCC(=O)CC(=O)N[C@H]1CCOC1=O	lasR	reporter gene, agonist	ΔmexAB-oprM pump mutant			EC50	26000 nM
Cc1cc(C(=O)Nc2nc3cccc(C)c3n2[C@H]2CCCCN(C(=O)/C=C/CN(C)C)C2)ccn1	Trypanosoma brucei	propidium iodide flow cytometry	bloodstream form	concentration not given, 3 h		cells in G1 phase	44.5%
COc1ccc(CC(=O)N[C@H]2CCSC2=O)cc1	sdiA					EC50	5.7 nM
CSCC[C@H](NC(=O)[C@@H]1CCCN1C(=O)CNC(=O)[C@H](CCCCN)NC(=O)[C@H](Cc1cnc[nH]1)NC(=O)[C@H](CO)NC(=O)[C@H](CC(C)C)NC(=O)[C@H](CCCNC(=N)N)NC(=O)[C@@H]1CCCN1C(=O)[C@H](CCCNC(=N)N)NC(=O)[C@@H]1CCC(=O)N1)C(=O)N1CCC[C@H]1C(=O)N[C@@H](Cc1ccccc1)C(=O)O	Apelin receptor (Canis lupus familiaris, UniProt A0A8C0JGC4)	cAMP inhibition, agonist	HEK293	dog receptor		EC50	0.06 ± 0.03 nM
O=C1NC2(CC2)COc2ncc(F)cc2[C@H]2COCCN2c2ccn3ncc1c3n2			Sprague-Dawley rat, male, serum	oral, 20 mg/kg/day, end of recovery, 4-week subacute toxicity		serum sodium	144 ± 2 mmol/L
CC[C@H](C)[C@@H]1NC(=O)[C@H](Cc2ccc(O)cc2)NC(=O)[C@@H](N)CSSC[C@H](N)C(=O)N[C@@H](Cc2ccc(O)cc2)C(=O)N[C@@H]([C@@H](C)CC)C(=O)N[C@@H](CCC(N)=O)C(=O)N[C@@H](CC(N)=O)C(=O)N[C@H](C(=O)N2CCC[C@H]2C(=O)N[C@@H](CC(C)C)C(=O)NCC(N)=O)CSSC[C@@H](C(=O)N2CCC[C@H]2C(=O)N[C@@H](CC(C)C)C(=O)NCC(N)=O)NC(=O)[C@H](CC(N)=O)NC(=O)[C@H](CCC(N)=O)NC1=O	Oxytocin receptor (OXTR, Homo sapiens, UniProt P30559)	calcium signal, agonist, fluorescence				EC50	621 nM
Cc1cc(O)cc(C)c1C[C@H](N)C(=O)N[C@H](CCCNC(=N)N)C(=O)N[C@@H](Cc1ccccc1)C(=O)N(C)CC(=O)N(C)Cc1cc(C(F)(F)F)cc(C(F)(F)F)c1	Delta-type opioid receptor (OPRD1, Homo sapiens, UniProt P41143, D210N)	agonist				EC50	1.91 ± 0.7 nM
CN(C)[C@H](CNC(=O)/C=C/c1cccc2ccccc12)Cc1ccc(O)cc1	Mu-type opioid receptor, with Gi2 (OPRM1, Homo sapiens, UniProt P35372)	receptor activation, agonist				EC50	10 ± 1 nM
CC(C)(C)C(=O)OCOP(=O)(OCOC(=O)C(C)(C)C)C1CCCN(O)C1=O (stereo not shown)	NCI-H23					log LC50	> -4 log M
CCCC(=O)CC(=O)N[C@H]1CCOC1=O	sdiA					EC50	3.84 nM
COc1ccccc1-c1n[nH]c2nc(N[C@H]3CC[C@H](NS(=O)(=O)CC(C)C)CC3)ncc12		bead binding, competition bead pull-down, item: LMJF.27.0930	Leishmania donovani extract	10 µM	baseline: vehicle	relative abundance	1.2
CN(C)[C@H]1C[C@@]23CC[C@@]4(O2)C(=CC[C@]2(C)[C@@H](c5ccc6ccncc6c5)CC[C@H]24)C=C3[C@@H](O)[C@@H]1O	Serine/threonine-protein kinase tousled-like 2 (TLK2, Homo sapiens, UniProt Q86UE8)	ATP probe labelling, inhibitor, KiNativ profiling		1 µM		inhibition	-6.4%
COc1ccccc1-c1n[nH]c2nc(NC3CCN(C(=O)Cc4ccc(F)cc4F)CC3)ncc12		bead binding, competition bead pull-down, item: LINJ.26.0840	Leishmania donovani extract	10 µM	baseline: vehicle	relative abundance	1.13
CSCC[C@@H]1NC(=O)[C@H](Cc2ccccc2)NC(=O)[C@@H](NC(C)=O)CSC(=O)[C@H](C(C)C)NC(=O)[C@H](Cc2ccccc2)NC1=O	Histidine kinase AgrC					EC50	46.3 nM
O=C1NC(=O)c2c1c1cc(F)c[n+]3c1c1c2c2cc(O)ccc2[n]1[Ru-4]312([N]=C=S)[S+]3CC[S+]1CC[S+]2CC3 (stereo not shown)	BRSK1	enzyme activity		100 nM, human enzyme, added: 10 µM ATP	baseline: untreated	remaining activity	51%

SMILES	target or system	assay	test system	conditions	how to read	endpoint	result
CCCCCCCCCC(=O)NC1CCSC1=O (stereo not shown)	sdiA					EC50	11.4 nM
N[C@H](C(=O)N1CCCC1)C1CCN(c2nccc3c(-c4ncc(Cl)cc4Cl)cccc23)CC1	Adrenocorticotropic hormone receptor (MC2R, Homo sapiens, UniProt Q01718)	functional response, agonist		10 µM		response	3%
CCCCCCCCCC(=O)CC(=O)Nc1ccccc1O	lasR	reporter gene, agonist	ΔmexAB-oprM pump mutant			EC50	15000 nM
CCCCCCC(=O)N[C@H]1CCSC1=O	sdiA					EC50	2.35 nM
CCCCCCCCCCCCCCCCCC(=O)NC[C@H]1CC[C@H](C(=O)N[C@@H](CCC(=O)NCCCOCCOCCOCCCNC(=O)COCC(=O)N[C@@H](Cc2ccc(O)cc2)C(=O)NC(C)(Cc2ccccc2)C(=O)N[C@@H](CC(C)C)C(=O)N[C@@H](CCCC)C(=O)N[C@@H](CCCNC(=N)N)C(=O)N2CCC[C@H]2C(=O)N[C@@H](CCCNC(=N)NC)C(=O)N[C@@H](CC(N)=O)C(N)=O)C(=O)O)CC1 (stereo partly shown)	Neuromedin-U receptor 1 (Mus musculus, UniProt O55040)	β-arrestin recruitment, agonist				EC50	> 10000 nM
CCCCCCCCCC(O)CC(=O)N[C@H]1CCOC1=O (stereo partly shown)	sdiA					EC50	231 nM
CN1CCC(c2c[nH]c3ccc(O)cc23)CC1	5-hydroxytryptamine receptor 1E (HTR1E, Homo sapiens, UniProt P28566)	G protein activation, agonist, BRET				EC50	2.48 nM
O=C(O)CCn1c(=O)oc2cc(Cl)c(Cl)cc21	Nuclear receptor subfamily 1 group I member 2 (NR1I2, Homo sapiens, UniProt O75469)	reporter activity, activator				EC50	> 50100 nM
CSCC[C@@H]1NC(=O)[C@H](Cc2ccccc2)NC(=O)[C@@H](N)CSC(=O)[C@H](C(C)C)NC(=O)[C@H](Cc2ccccc2)NC1=O	Histidine kinase AgrC					EC50	107 nM
CC[C@H](C)[C@H](NC(=O)[C@H](CO)NC(=O)[C@H](Cc1ccc(O)cc1)NC(=O)[C@H](Cc1ccc(O)cc1)NC(=O)[C@H](CC(N)=O)NC(=O)CNC(=O)[C@H](CO)NC(=O)[C@H](Cc1ccc(O)cc1)NC(=O)[C@H](CO)NC(=O)[C@H](CO)NC(=O)[C@H](CC(N)=O)NC(=O)COCCOCCNC(=O)CN1CCN(CC(=O)O)CCN(CC(=O)O)CCN(CC(=O)O)CC1)C(=O)N[C@@H](CC(C)C)C(N)=O [copper-64 labelled]		dynamic PET	mouse, tamoxifen-induced PDAC, tumor	intravenous, 0.1 µg/mouse, 8.5 min		tumour uptake	12.1 %ID/mL
CSCC[C@@H]1NC(=O)[C@H](Cc2ccc(O)cc2)NC(=O)[C@@H](NC(=O)[C@H](C)N)CSC(=O)[C@H](C(C)C)NC(=O)[C@H](Cc2ccccc2)NC1=O	Histidine kinase AgrC					EC50	518 nM
CS(C)(=O)=Nc1ccc(-c2ccc(-c3nc4cc(O[C@@H]5CO[C@H]6[C@@H]5OC[C@H]6O)[nH]c4cc3F)cc2)cc1	Ephrin type-A receptor 4 (EPHA4, Homo sapiens, UniProt P54764)	enzyme activity, inhibitor		10 µM		inhibition	-12%
CCCC(=O)N[C@H]1CCSC1=O	sdiA					EC50	6.85 nM
CC(C)[C@H]1NC(=O)C[C@H]2/C=C/CCSSC[C@@H](NC1=O)C(=O)N[C@H](Cc1cccc3ccccc13)C(=O)NCC(=O)O2	BRSK1	enzyme activity, inhibitor		10 µM		inhibition	-2.1%
O=C(Cc1ccc(F)c(C(F)(F)F)c1)N[C@H]1CCOC1=O	sdiA					EC50	8.28 nM
CC(C)[C@H](NC(=O)[C@@H]1CSSC(C)(C)[C@H](NC(=O)[C@@H](N)CC(=O)O)C(=O)N[C@@H](Cc2ccccc2)C(=O)N[C@@H](Cc2c[nH]c3ccccc23)C(=O)N[C@@H](CCCCN)C(=O)N[C@@H](Cc2ccc(O)cc2)C(=O)N1)C(=O)O	Urotensin-2 receptor (UTS2R, Homo sapiens, UniProt Q9UKP6, Y100A)	IP1 accumulation, agonist, HTRF	HEK293T	1 h, 37 °C, Y100A mutant, 2.53		EC50	2 nM
CCCCCCCC(=O)N[C@H]1CCSC1=O	sdiA					EC50	1.64 nM
Cc1ccc2c(C(C[N+](=O)[O-])c3cccs3)c(-c3ccccc3)[nH]c2c1 (stereo not shown)	Cannabinoid receptor 1, with GoB (CNR1, Homo sapiens, UniProt P21554)	GoB dissociation, agonist, BRET	HEK293			EC50	270 ± 90 nM

Some of these lines once more:
SMILES	target or system	assay	test system	conditions	how to read	endpoint	result
CSCC[C@H](NC(=O)[C@@H]1CCCN1C(=O)CNC(=O)[C@H](CCCCN)NC(=O)[C@H](Cc1cnc[nH]1)NC(=O)[C@H](CO)NC(=O)[C@H](CC(C)C)NC(=O)[C@H](CCCNC(=N)N)NC(=O)[C@@H]1CCCN1C(=O)[C@H](CCCNC(=N)N)NC(=O)[C@@H]1CCC(=O)N1)C(=O)N1CCC[C@H]1C(=O)N[C@@H](Cc1ccccc1)C(=O)O	Apelin receptor (Canis lupus familiaris, UniProt A0A8C0JGC4)	cAMP inhibition, agonist	HEK293	dog receptor		EC50	0.06 ± 0.03 nM
CC(C)(C)C(=O)OCOP(=O)(OCOC(=O)C(C)(C)C)C1CCCN(O)C1=O (stereo not shown)	NCI-H23					log LC50	> -4 log M
CCCCCCC(=O)N[C@H]1CCSC1=O	sdiA					EC50	2.35 nM
CSCC[C@@H]1NC(=O)[C@H](Cc2ccccc2)NC(=O)[C@@H](N)CSC(=O)[C@H](C(C)C)NC(=O)[C@H](Cc2ccccc2)NC1=O	Histidine kinase AgrC					EC50	107 nM
CSCC[C@@H]1NC(=O)[C@H](Cc2ccccc2)NC(=O)[C@@H](NC(=O)[C@H](C)N)CSC(=O)[C@H](C)NC(=O)[C@H](Cc2ccccc2)NC1=O	Histidine kinase AgrC					EC50	241 nM
